Experimental data collected from several papers.
Numbered parts are unrelated; each lists some results of a single study.

Study 1
Target: Ras GTPase-activating protein-binding protein 1, full length (G3BP1, Homo sapiens, UniProt Q13283)
UniProt Q13283, sequence (whole entry, looked up): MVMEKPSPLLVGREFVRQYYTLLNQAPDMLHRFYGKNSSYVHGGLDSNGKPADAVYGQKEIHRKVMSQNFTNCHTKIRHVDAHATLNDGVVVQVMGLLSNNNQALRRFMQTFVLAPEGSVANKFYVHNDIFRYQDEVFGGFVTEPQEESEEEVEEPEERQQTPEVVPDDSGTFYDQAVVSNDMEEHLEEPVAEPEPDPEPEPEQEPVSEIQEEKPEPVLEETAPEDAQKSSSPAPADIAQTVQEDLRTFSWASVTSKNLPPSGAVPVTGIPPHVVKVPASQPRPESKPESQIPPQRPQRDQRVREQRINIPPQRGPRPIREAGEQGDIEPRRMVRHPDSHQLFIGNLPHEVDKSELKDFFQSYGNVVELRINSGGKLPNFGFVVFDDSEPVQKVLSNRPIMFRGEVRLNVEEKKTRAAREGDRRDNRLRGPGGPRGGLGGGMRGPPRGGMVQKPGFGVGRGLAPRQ
Technique: RNA Bind-n-Seq
Form: RNA
Sample: in vitro
Concentration: 200 nM
Notes: whole 134-nt RNA, ends assumed
Added: 150 mM KCl
Baseline: input library
Direction: higher = stronger binding
Constant ends, left off below: GGGAGUUCUACAGUCCGACGAUC … UGGAAUUCUCGGGUGUCAAGG
| Oligonucleotide | log2 enrichment |
| --- | --- |
| AAGUCCUGUGCUACACAUCGUAUGUACCGAAUCGGGUUUUUGGGUUUGGGUUUGGGAAAGUAUUAUGUUACGCCGUUCGGAUCUGCACUU | 0.0642 |
| UCCUCAAGUCCUGUGCUACACAUCGUAUGUACCGAAUCGGCGGCGGGCGGGAAAGUAUUAUGUUACGCCGUUCGGAUCUGCACUUCCAGC | -0.203 |
| ACCAUGCAGGUGGGCAUCUUUGGGAAGUGGGGCAAGGGGGGGAUAGGGAGGGGGGUAGCACUUUGGGAACAGGUGGUCCCAGGUCGUUUC | 1.19 |
| AGUCCUGUGCUACACAUCGUAUGUACCGAAUCGGGAAAAAGGGUUUGGGAAAAAGGGAAAGUAUUAUGUUACGCCGUUCGGAUCUGCACU | -0.673 |
| UAACUUUAGAGGAGGAUCUGAUGGAUAUGGCAGUGGACGUGGAUUUGGGGAUGGCUAUAAUGGGUAUGGAGGAGGACCUGGAGGGGGCAA | 0.256 |

Study 2
Target: RNA binding protein fox-1 homolog 2, RRM domain, GST-SBP tag (RBFOX2, Homo sapiens, UniProt O43251-10, residues 100-194)
Technique: RNA Bind-n-Seq
Form: RNA
Sample: in vitro
Concentration: 365 nM
Notes: natural RNA segment, single round, ends assumed
Baseline: no-protein control
Direction: higher = stronger binding
Constant ends, left off below: GGGAGUUCUACAGUCCGACGAUC … UGGAAUUCUCGGGUGCCAA
Target sequence (chain): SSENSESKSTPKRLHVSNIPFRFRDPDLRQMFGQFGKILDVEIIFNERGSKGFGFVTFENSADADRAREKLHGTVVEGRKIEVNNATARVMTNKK
| Oligonucleotide | RBNS enrichment (R) |
| --- | --- |
| UCUCCACUCUCCUGCCUUCAGCCAUAGCAAAGAAUCCUUCCAAAAUCAAACUCUUCACUUUUUUGACUCAAGUGUUGUUGUUCAGUCUCUCGCGUGUCAAUGUGGUCAUG | 0.935 |
| GAUCUGAGUUAUUUUGCUAAACUUGGGGGAGGAGGAACAAAUAAAUGGAGUCUUUAUUGUGUAUCAUCCACUGAAUGUGGCUCAUUUGUAUUGAAAGACAGUGAAACGAG | 0.842 |
| UAUCACUUCAGGGCUUGGAAAAGUCAGUCAACUUGACGUACAUUUUUAGUGACAUUUUAAAAGCAGUCAGAUUCUAUAAAUGGCAAGUAAGCCUGAAGUGAGGAUACUGC | 0.336 |
| UUGCUCGCAGCUGGGGUGUGGGGCCAAGUGGCAGCCAGGGCCAAGACAAGCAGCAUCUGUCCCCCCCAGAGCCAUCUAGCUACUGACACUGCCCCCAGCUUUGCUUCUCA | 0.98 |
| UAUAGAAGCUGUAUGUGUAAGGGUGACUUAAAUCAUAUGUCACAUUGUCUAAACUAUUCAGACACUUGGAGAAUAUUCUCCUUGAAUUAAAAAAGAUGAUUAAGAAGGAU | 0.398 |
| UCCUCGUGCACAGAAAUGCUCAGGGUCCCCAUGUGCCUGUUGUUCAGCCCUCUCUCUUGUUCCCUUUCUGAGCAUGUGGUCCUUCCCCAGGCUGUGGGACAGCUGCCUUC | 2.23 |
| ACAAAUCGGCUUCCUCUCCCCACCCUCCUGCCACUCUAAGUAUUGAAUGUACUUUGUAUAAUUUUAGUGGAAUUAUUGUUAUUAAAGAGAAUAAAAUUUUUACAAUCAUA | 0.403 |

Study 3
Target: Prothrombin, mature alpha-thrombin (F2, Homo sapiens, UniProt P00734)
Technique: aptamer microarray, sandwich
Form: DNA with 2'F-ANA
Sample: in vitro
Concentration: 200 nM
Notes: whole 15-mer aptamer, many near background
Added: Cy3 exosite-II aptamer, 400 nM
Direction: higher = stronger binding
Oligonucleotide: GGTTGGTGTGGTTGG
| Modification | mean fluorescence intensity |
| --- | --- |
| 2'F-ANA at 3 6 8 9 10 11 12 15 | 440 a.u. |
| 2'F-ANA at 4 5 6 10 11 12 14 15 | 46.9 a.u. |
| 2'F-ANA at 2 3 6 7 9 12 13 | 705 a.u. |
| 2'F-ANA at 1 4 5 6 9 10 11 12 13 | 49.2 a.u. |
| 2'F-ANA at 2 4 5 6 7 10 11 | 49.6 a.u. |

Further values, each from its own experiment
| Molecule | target | test | test system | setting | scale | endpoint | result |
| --- | --- | --- | --- | --- | --- | --- | --- |
| PhoQ, residues 284 288 289 292 302 303 WSHMKI | PhoP, residues 12 14 15 18 19 SQCLL (Escherichia coli, UniProt P23836) | Sort-seq, item: YFP reporter | E. coli | PhoQ-PhoP variant library, added: 10 µM Mg2+ | baseline: high Mg2+ state, higher = stronger signaling | fold induction | 12.4 |

For quick reference, copied from above (study 3):
| Modification | mean fluorescence intensity |
| --- | --- |
| 2'F-ANA at 4 5 6 10 11 12 14 15 | 46.9 a.u. |
| 2'F-ANA at 3 6 8 9 10 11 12 15 | 440 a.u. |
